Assay results pooled from the literature.
A part holds a random share of what one study measured.

Series 1
Target: Interferon regulatory factor 3, full length, phosphomimetic (IRF3, Homo sapiens, UniProt Q14653, residues 1-427, S386D/S396D/S398D/S402D/T404D/S405D)
Method: protein-binding microarray
Molecule type: double-stranded DNA, one strand shown
Matrix: in vitro
Concentration: 2540 nM top
Setting: 60-bp whole probe
With: salmon DNA 0.4 mg/ml
Reference: random background probes
Direction: higher = stronger binding
Shared flanks, not repeated: GCCTAGCAC … GTCTTGATTCGCTTGACGCTGCTG
Construct (chain): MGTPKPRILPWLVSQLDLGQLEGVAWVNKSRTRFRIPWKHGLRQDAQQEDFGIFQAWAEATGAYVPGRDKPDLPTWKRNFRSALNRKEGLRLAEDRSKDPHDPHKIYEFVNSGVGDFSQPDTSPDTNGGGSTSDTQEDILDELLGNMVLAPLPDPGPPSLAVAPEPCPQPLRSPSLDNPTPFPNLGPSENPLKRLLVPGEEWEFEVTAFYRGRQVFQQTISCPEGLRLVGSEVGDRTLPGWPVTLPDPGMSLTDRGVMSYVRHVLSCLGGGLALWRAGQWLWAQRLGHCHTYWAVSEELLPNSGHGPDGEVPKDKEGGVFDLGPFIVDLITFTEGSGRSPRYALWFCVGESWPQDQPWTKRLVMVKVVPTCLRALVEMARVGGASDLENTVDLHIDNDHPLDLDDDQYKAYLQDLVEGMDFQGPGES
Sequence	fitted relative affinity
TCATGTTTTTTTCTACTTCTGTGCTAG	0.731 z-score
TTAGGTTTCGGTCTCGTTTAGTGCTAG	8.95 z-score
TTAGATTTCAGTTCAGATTAGTGCTAG	2.2 z-score
TTGTGTTGCTGTTTGAGGAAGTGCTAG	2.66 z-score
TACGATATCAGTCTCGAGACGTGCTAG	1.04 z-score
CACGGTATCCTTTTCCTGACGTGCTAG	7.31 z-score
TGTGGTCTGTTTCTGATATGGTGCTAG	2.57 z-score
TTAGGCCTGGACTTTCGGTTAGTGCTA	0.493 z-score
TCACCTTTACTTTCTTTACTGTGCTAG	2.58 z-score
GACGGTTCCGGTTTCCGGACGTGCTAG	6.46 z-score
GACGAACTGAGTCTCCAGACGTGCTAG	-0.00488 z-score
TCAACTTTGCTCTGTGCAACTGTGCTA	-0.24 z-score
GACGGTATCGGTTTCCGGACGTGCTAG	6.94 z-score
TTAGGTTTCGGTCTCGGTAAGTGCTAG	8.87 z-score
TTAGGTATCGACAATCGGTTAGTGCTA	0.0576 z-score
GACGATTACGGGTTTCGAGACGTGCTA	0.744 z-score
GGACAGTAATGGAGGTATAAGTGCTAG	-0.229 z-score
GACGGACTGGGACTGGGGTCGTGCTAG	-0.847 z-score
GACGATGTCAGTCTCGAGACGTGCTAG	0.121 z-score

Series 2
Target: Histone acetyltransferase KAT6A, winged helix 1, GST fusion (KAT6A, Homo sapiens, UniProt Q92794, residues 1-85)
Method: protein binding microarray
Molecule type: double-stranded DNA, one strand shown
Matrix: in vitro
Concentration: not given
Setting: 8-mer, flanks averaged, mean of 2 arrays, mostly near background
Reference: not given
Direction: higher = stronger binding
Target sequence (chain): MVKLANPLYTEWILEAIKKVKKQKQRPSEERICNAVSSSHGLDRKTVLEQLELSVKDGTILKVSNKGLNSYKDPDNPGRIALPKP
Sequence	E-score
TAACTAAA	-0.0944
GAGGAGGA	-0.185
CCTGCCAA	-0.182
GCATAACC	0.0733
CCAATTAC	-0.118
CCAGCCCC	-0.0935
ACGAACGT	-0.0771
AATCTCCA	-0.145
TAAGGACA	-0.105
AGAATCCG	-0.0297
CACTCCCC	0.172
CAGAGCTG	-0.125
ACAGATCA	-0.181
CCTATACA	-0.143
ACGTGGAC	-0.0508
GGTTTAAA	-0.0453

Series 3
Target: RNA binding protein fox-1 homolog 2, RRM domain, GST-SBP tag (RBFOX2, Homo sapiens, UniProt O43251-10, residues 100-194)
Method: RNA Bind-n-Seq
Molecule type: RNA
Matrix: in vitro
Concentration: 365 nM
Setting: natural RNA segment, single round, ends assumed
Reference: no-protein control
Direction: higher = stronger binding
Construct (chain): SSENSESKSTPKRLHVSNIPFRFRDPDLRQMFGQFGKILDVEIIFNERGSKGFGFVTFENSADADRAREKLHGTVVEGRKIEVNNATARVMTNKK
Sequence	RBNS enrichment (R)
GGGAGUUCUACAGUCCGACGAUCAGCUCAUGGCCUCCUCAGAGGAAGACAUCAUUGACUUGAAAUAGAGUCUAUGCCCUAUUGGCCAUCCUUAGUUUUCUUACGCAAAUUUAUACUGUUCAAGCAGCUCCAACUGGAAUUCUCGGGUGCCAA	0.287
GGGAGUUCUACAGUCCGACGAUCAAUAUUCUGAUUUUUAUCUAUUUCUUUAUUCAUAAAGUUGGCACAGAGUCACAAUGCAACCUAAAGUAGUUCAUGUAAGAAACAGAAUAUUUUGUCCUUUCUUCUCAUACUGGAAUUCUCGGGUGCCAA	0.477
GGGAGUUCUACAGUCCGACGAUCUGAUUAUGCAACUAAGUAGGCCUCCAGAGCCUCUCUAGUGGCAGAGCAGCUCACACUCCCUCCGCUGGGAACGAUGGCUUCUGCCUAGUACCUAUCCUUGUGUUUCUGAUUGGAAUUCUCGGGUGCCAA	0.244
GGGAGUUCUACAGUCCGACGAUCACAAGAGCGAAACUCUGUCUCAAAAUAAAUAAAAAAUAAAAGACAGAAAGCAAGGGGUGCCUAAAUCUAGACUUGGGGUCCACACCGGGCAGCGGGGUUGCAACCCAGCAUGGAAUUCUCGGGUGCCAA	2.35
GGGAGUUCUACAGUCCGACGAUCAAAACAAGGUGUUCCUUGAUUUAUAAUCCUUCUUGUUUAUGCUGUGUUCUUUGAUUUAUAAUCCUUGUUUGCUCAAUAAAAAGAAAAAAUAAUUUGAUUCAUUUGCCCUCUGGAAUUCUCGGGUGCCAA	0.309
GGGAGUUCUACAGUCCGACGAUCAGUUAGCAUUGCUUUAAUGGACUGCAUUUGUCAUUAUCAAGUUACUCUUUCCUUUGUGAGCUGUUAAUCCACAAUUACUGACCAUACUAAUAGUAAGUGUGAUUUGAUUCUGGAAUUCUCGGGUGCCAA	0.387
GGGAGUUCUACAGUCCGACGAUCAUGAGAAAACAUCAAAACUGCUGUAGUUUUCCAUUUCUACUGUAUUUCAGUUGCAACCUAUUUUUAAUAAACUUUGUAUGUAUUUAAGUGUAUUUGCUAUUGUUUUGAAAUGGAAUUCUCGGGUGCCAA	2.6
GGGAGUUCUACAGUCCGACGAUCAUAAAAAUGUUAACCAGAAGGUAACCCUGAGUGUGAUUGUGAGAGAGACACGCCUUUUUACUAGUUCAUUUGCAUUUAAAUCAGUGAUCCUGUUCUGUGGCAUUCAUGAAUGGAAUUCUCGGGUGCCAA	1.25

Series 4
Target: Fragile X messenger ribonucleoprotein 1, C-terminal low-complexity region (Fmr1, Mus musculus, UniProt P35922)
Method: RNA Bind-n-Seq
Molecule type: RNA
Matrix: in vitro
Concentration: 200 nM
Setting: whole 134-nt RNA, ends assumed
With: 150 mM LiCl
Reference: input library
Direction: higher = stronger binding
Each molecule: 7-deaza-guanosine replaces G
Sequence	log2 enrichment
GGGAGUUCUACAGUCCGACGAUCCCUGUGCUACACAUCGUAUGUACCGAAUCGGGGCCCCCCGGCCCCCCGGGGCCCCCCGGGAAAGUAUUAUGUUACGCCGUUCGGAUCUGCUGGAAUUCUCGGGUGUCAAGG	-1.55
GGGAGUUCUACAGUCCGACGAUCGGUUUCUGGUGAGCUUCAUGGUUGACGCCCGGGGUGGUUCCAUGAGAGGAAGUCGCCACAACGGCCUGCGAGUGGUGAUCCCGCCACGGAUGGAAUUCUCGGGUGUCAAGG	-4.38
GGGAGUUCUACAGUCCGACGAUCUUGCGAAAAGGACCAAUUCCAGUGCCGGAACGAGCGCUGCAUCCCCUCUGUGUGGAGAUGCGACGAGGACGAUGACUGCUUAGACCACAGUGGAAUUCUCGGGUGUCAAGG	-0.477
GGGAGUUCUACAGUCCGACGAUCAGUCCUGUGCUACACAUCGUAUGUACCGAAUCGGGAGGGAAAAAGGGUUUUUUUGGGAAAGUAUUAUGUUACGCCGUUCGGAUCUGCACUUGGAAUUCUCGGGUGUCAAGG	-1.8
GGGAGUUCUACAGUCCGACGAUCGUCCUGUGCUACACAUCGUAUGUACCGAAUCAAACCCCCAAAUUUUUAAAUUUUUAAAAAAGUAUUAUGUUACGCCGUUCGGAUCUGCACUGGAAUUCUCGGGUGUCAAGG	0.802
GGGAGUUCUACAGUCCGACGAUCUCAAGUCCUGUGCUACACAUCGUAUGUACCGAAUCGGGAGGGUUUUUGGGUGGGAAAGUAUUAUGUUACGCCGUUCGGAUCUGCACUUCCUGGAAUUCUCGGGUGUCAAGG	-0.922
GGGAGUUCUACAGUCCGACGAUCACCAUGCAGGUGGGCAUCUUUGGGAAGUGGGGCAAGGGGGGGAUAGGGAGGUGGGUAACACUUUGGGAACAGGUGGUCCCAGGUCGUUUCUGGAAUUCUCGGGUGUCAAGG	1.12
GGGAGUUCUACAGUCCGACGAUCCACAGACAACACGCACCCACACAGACACAGAGGGAAGGGGUUGGGAUGGGGACAGGGUACACAGCAGGGCGGGGUAGGACCCCAGCCCCUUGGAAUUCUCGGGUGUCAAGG	0.459

Repeated from above (series 1):
Sequence	fitted relative affinity
GACGGTTCCGGTTTCCGGACGTGCTAG	6.46 z-score
GACGAACTGAGTCTCCAGACGTGCTAG	-0.00488 z-score
TCAACTTTGCTCTGTGCAACTGTGCTA	-0.24 z-score
GACGGTATCGGTTTCCGGACGTGCTAG	6.94 z-score
TTAGGTTTCGGTCTCGGTAAGTGCTAG	8.87 z-score
TTAGGTATCGACAATCGGTTAGTGCTA	0.0576 z-score
